Assay results collected from several papers.
Each numbered part is a random draw from the data of one study; scales do not carry over between parts. Changes are numbered by the printed parent chain.
Sequence of UniProt Q9BY78 (whole entry, looked up): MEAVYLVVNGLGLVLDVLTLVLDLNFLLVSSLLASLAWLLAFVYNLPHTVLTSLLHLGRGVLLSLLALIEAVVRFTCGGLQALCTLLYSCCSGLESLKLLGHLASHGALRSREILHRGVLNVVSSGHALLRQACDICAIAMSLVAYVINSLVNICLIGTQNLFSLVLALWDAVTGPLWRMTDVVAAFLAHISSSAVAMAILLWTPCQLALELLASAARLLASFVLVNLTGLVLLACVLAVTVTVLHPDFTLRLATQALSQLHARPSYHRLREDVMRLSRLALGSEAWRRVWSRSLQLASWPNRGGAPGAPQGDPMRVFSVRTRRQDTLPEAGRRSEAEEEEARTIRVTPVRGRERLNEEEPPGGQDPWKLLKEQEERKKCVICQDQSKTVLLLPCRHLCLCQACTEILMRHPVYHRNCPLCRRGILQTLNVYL
Sequence of UniProt O43567 (whole entry, looked up): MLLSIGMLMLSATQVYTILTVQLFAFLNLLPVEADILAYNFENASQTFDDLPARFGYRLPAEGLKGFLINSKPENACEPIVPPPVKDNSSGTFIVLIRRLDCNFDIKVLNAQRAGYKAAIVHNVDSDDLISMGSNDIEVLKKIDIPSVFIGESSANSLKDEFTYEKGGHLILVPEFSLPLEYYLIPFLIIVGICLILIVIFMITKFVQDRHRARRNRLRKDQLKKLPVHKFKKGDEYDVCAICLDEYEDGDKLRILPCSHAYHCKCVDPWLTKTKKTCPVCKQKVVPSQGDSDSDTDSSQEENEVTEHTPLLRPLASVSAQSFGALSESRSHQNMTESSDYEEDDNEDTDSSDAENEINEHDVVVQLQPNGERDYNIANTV
Sequence of UniProt Q9UNE7 (whole entry, looked up): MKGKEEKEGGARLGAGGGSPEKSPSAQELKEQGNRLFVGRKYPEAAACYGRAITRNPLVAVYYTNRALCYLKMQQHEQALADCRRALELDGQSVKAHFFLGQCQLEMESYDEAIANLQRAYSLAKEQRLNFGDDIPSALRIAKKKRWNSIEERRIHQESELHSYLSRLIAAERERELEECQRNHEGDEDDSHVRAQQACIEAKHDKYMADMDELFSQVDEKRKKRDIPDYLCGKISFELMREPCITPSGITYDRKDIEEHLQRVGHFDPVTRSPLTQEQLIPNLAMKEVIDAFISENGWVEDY

Block 1 — target: CCNB1, cyclin fold, Cln2 fusion (human); method: yeast growth competition, sequencing; matrix: yeast; setting: strong parent motif; relative to: not given; direction: higher = stronger binding; parent: viral docking peptide; TSVRRALFTGGSD
`R5E` — result for “normalised enrichment score”: -0.0544.
`R5K` — result for “normalised enrichment score”: 1.81.
For `T1A`, “normalised enrichment score” read 2.68.
`R4C`: “normalised enrichment score” 2.75.
For `G10I`, “normalised enrichment score” read 1.57.
`G11M` — result for “normalised enrichment score”: 1.83.
`G11S`: “normalised enrichment score” 2.57.
For `G11E`, “normalised enrichment score” read 3.14.
For `F8C`, “normalised enrichment score” read -0.00291.
`G10W` — result for “normalised enrichment score”: 1.11.
Under “normalised enrichment score”, `V3F` is recorded as 0.423.
`S2W` — result for “normalised enrichment score”: 0.487.
For `V3A`, “normalised enrichment score” read 0.475.
For `L7N`, “normalised enrichment score” read 0.322.
`V3W` — result for “normalised enrichment score”: 0.206.
`L7T`: “normalised enrichment score” 0.242.
For `L7K`, “normalised enrichment score” read 0.378.
For `V3Q`, “normalised enrichment score” read -0.203.
`A6L`: “normalised enrichment score” 0.785.
`A6D`: “normalised enrichment score” 0.386.
`T9N` — result for “normalised enrichment score”: 1.43.
Under “normalised enrichment score”, `R4I` is recorded as 2.22.
For `G11C`, “normalised enrichment score” read 2.37.
For `S2T`, “normalised enrichment score” read 1.93.
`G11N` — result for “normalised enrichment score”: 2.09.

Block 2 — method: EMSA with sequencing; form: double-stranded DNA, one strand shown; matrix: in vitro; concentration: 10 and 20 nM; relative to: negative control set to 0; direction: higher = stronger binding
Target: Hepatocyte nuclear factor 3-alpha (Foxa1, Mus musculus, UniProt P35582, residues 1-468, full length assumed)
Setting: whole designed probe, mean of two concentrations, ends assumed
Construct (chain): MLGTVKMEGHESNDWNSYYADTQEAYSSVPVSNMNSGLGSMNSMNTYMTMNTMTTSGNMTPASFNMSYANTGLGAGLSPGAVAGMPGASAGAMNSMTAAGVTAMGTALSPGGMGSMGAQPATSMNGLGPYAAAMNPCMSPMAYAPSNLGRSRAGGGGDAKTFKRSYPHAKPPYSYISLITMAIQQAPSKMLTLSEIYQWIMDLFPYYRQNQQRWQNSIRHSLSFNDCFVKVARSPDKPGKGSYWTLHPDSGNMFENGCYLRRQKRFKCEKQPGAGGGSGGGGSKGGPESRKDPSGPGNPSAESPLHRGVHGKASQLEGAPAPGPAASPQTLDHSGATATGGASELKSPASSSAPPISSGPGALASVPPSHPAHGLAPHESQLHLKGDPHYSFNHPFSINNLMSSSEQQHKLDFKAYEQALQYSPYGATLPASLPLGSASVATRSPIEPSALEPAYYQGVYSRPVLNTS
For `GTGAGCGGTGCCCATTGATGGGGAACATCTTCCCCCTCTTCCTTGCCCCACCAGCTCACCTTCCCGGGTTATTTGCAGATAGGAAAATAAATAAAGCCGGCATTCGTTAACCCTCTTCTGGCGCAAACTGCTGTTTGCTCTGGATGAATCATGGTCCTTTGGCGACGCATCCGCCGGGGAGAGCAAAGCACCGTGTCAGGGCCATGATCCGGGGTGGCCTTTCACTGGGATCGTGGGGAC`, “normalised bound fraction” read 0.343 ratio.
`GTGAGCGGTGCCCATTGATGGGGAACTCTGTAGCCTTTGCAAATAACCTTTTTGAACAAAAACGGCAATGGCTCATTCCAAACCCGATCAAAGAGGTATGCATGACTCACAGCCACTAAATAATCTTTGATGCCTGATGGCAGTAATATGGCTATTTATATTCAGAGCCTGATTTAACCAGTGGCATTCCTGTAATAAGATAATAAGCATGAGCTGTTTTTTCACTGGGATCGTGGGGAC` — result for “normalised bound fraction”: 0.0736 ratio.
`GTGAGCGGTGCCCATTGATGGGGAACGGAAGTCTGCAATGCTTTGAACAGCAGGGTGTGGGAGGAAGTGTTGGCCCTACTCACCCTGCCTGACCTCCCTGGGCTGAGTCGACTGAGCTCTGTTTACATAGCTGAGGGACTGGGAATGCTGGAGTGGAGGAAGGAGGTGATGAATGATTCAGGAGGACACACAACATCCCTGCTTTTCTTTCCTGCTGGCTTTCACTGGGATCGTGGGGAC`: “normalised bound fraction” 0.416 ratio.
Under “normalised bound fraction”, `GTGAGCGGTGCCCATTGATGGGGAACGTGGATTCTTTCATTATACAAATACACGTTATTTTTTAATTTCAGAAGAAATCATGATATGTCAATCTATTGAGTGCTAACTAAAAGTTCCCTTTGTTTACTTAGCTTTCTCTTAGTTATAAGAAAGAAAAAGACTTCTTGCATGAAAATAGTACGTTGCAGGAAGAAGTTGCCATGCTAAGACTGGAGCTAGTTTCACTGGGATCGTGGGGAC` is recorded as 0.495 ratio.
Under “normalised bound fraction”, `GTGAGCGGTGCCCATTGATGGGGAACCTCATCTTAGATAGTAGAATCGCAGCATTTTTTTCTGCCGGTCTGAACTCAGGCACGCTATTTGTTCATCTACTTACTCAAACATGTATTGTGAGATTACTCAGTGGCAGGCTCTGTCCTAGGTGCTGGGGATGGAGCAGTGCAGAGAGACAAAAACTCTGCTCTCATAAAGCTCACAATCTACAACCTGAGATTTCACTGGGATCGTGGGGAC` is recorded as 0.173 ratio.
`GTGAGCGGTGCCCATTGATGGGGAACTGATGAGAAACATGATAATTATTTAGTCTGAAAGGATCTTCTCCAATAATTTTTTTTTGTCGTGATACATTCCTGACTTCTCCACCCCCAAATGCAAACAAACCTAAATTGAGGGAAATTCTATGCAATACCTAACCATTATTCATCAAATGTACACAGGAGTACAGTGACACAATCATGGTTCACTGTAACCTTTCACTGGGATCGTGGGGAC`: “normalised bound fraction” 0.37 ratio.
Under “normalised bound fraction”, `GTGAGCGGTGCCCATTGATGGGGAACTTCTACTCCAGTTCCAGAAAAGTTATGGAAGTCTCAGTTCCTGTGTGTGCCATCACTTTAGCCTCCAGGAAGCTATCTCTTAGTCTCTCCTACTGTAATCTTGTCTCCCTGAGTCACCACAGCATCTGTTGTTTCTAGGTGAAGGACTAATACAAATAACAGGGAGGCGCCTGGCATCTGGCCACCTGAACACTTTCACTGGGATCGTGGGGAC` is recorded as 0.203 ratio.
Under “normalised bound fraction”, `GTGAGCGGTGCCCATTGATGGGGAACAACAACCAGGAGGAAACAGGGTGATTATTGATTCAAGAGAAAACAGAATATTTGTGGATTTAGGGTCAATAAAACAACCTCCACAAATGTTAAAGTAAACAAGGAAAAATATAGCTTTAAAAAATGGACAACTAGGAGAATTTCTTTTCACATAGCAATGCAATTTTCTCCTCACAGTGATAGTCATAATTTCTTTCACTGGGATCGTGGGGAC` is recorded as 0.453 ratio.

Block 3 — target: UBE2W UBC core domain (UniProt Q96B02); method: yeast two-hybrid; matrix: yeast; setting: mostly zero background; relative to: not given; direction: higher = stronger interaction
Sequence of UniProt Q96B02 (whole entry, looked up): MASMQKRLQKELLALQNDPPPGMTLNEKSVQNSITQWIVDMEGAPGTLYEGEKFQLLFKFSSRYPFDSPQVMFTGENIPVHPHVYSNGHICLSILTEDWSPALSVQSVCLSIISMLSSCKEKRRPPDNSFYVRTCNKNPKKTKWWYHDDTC
Under “lacZ reporter activity”, `RNF167 RING domain (UniProt Q9H6Y7)` is recorded as 4090.
Under “lacZ reporter activity”, `STUB1 RING domain (UniProt Q9UNE7)` is recorded as 0.
`RNF26 RING domain (UniProt Q9BY78)`: “lacZ reporter activity” 9500.
Under “lacZ reporter activity”, `RNF13 RING domain (UniProt O43567)` is recorded as 0.

Block 4 — read-out: peptide-MHC binding; form: peptide; concentration: concentration not given
Target: HLA class I histocompatibility antigen, A alpha chain, allele A*25:01 (Homo sapiens, UniProt P04439)
`FGALFMWLL`: binding “inactive”.
`RAIMTTWTV` — result for binding: “inactive”.
`RFNAIWFNH` — result for binding: “inactive”.
`FQILHDRFF` — result for binding: “inactive”.

Block 5 — target: JUN, bZIP domain (human); method: DHFR protein complementation; matrix: yeast; relative to: wild-type JUN-FOS pair; direction: higher = stronger binding
Setting: single substitutions, most at no-binding floor
Parent: JUN, bZIP domain (human); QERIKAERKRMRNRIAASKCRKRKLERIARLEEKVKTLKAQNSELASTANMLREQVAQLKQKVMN; partner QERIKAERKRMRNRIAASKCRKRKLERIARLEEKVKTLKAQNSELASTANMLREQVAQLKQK
With `M51E` the binding fitness was -0.142 natural log.
`K34E` gave a binding fitness of 0.023 natural log.
`N42K` has a binding fitness of -0.721 natural log.
`I28K` gave a binding fitness of -0.95 natural log.
The binding fitness of `K39C` is reported as -0.465 natural log.
The binding fitness of `E44S` is reported as -0.483 natural log.
`L31W` has a binding fitness of -1.14 natural log.
`R53W` has a binding fitness of -1.08 natural log.

Block 6 — method: RNAcompete; form: RNA; matrix: in vitro; concentration: 20 nM; setting: 7-mer, probes averaged, single round; relative to: mean of 7-mers; direction: higher = stronger binding
Target: PABPC1L2, full length, GST fusion (mouse, UniProt A0ABA7IW68)
Residues (chain): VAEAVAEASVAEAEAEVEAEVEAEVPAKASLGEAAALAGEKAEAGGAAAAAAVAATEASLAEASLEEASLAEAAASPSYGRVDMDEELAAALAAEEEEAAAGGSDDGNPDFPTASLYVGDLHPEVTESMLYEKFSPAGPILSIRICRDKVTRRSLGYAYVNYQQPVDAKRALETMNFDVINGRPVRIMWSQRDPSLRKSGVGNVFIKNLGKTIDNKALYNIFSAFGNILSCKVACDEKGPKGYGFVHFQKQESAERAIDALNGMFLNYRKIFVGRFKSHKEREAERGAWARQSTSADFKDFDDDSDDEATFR
`UUACCAG` has a 7-mer Z-score of -0.213.
The 7-mer Z-score of `UCUUGCG` is reported as -0.291.
`CCUGCCA` gave a 7-mer Z-score of -0.282.
The 7-mer Z-score of `GACUUCA` is reported as -0.119.
The 7-mer Z-score of `UCGGGAG` is reported as -0.0573.
The 7-mer Z-score of `AGAUAAG` is reported as 0.0406.
For `GAUAACA`, the 7-mer Z-score was 0.153.
With `CCAGGCG` the 7-mer Z-score was -0.204.

Some of these lines once more (block 5):
With `M51E` the binding fitness was -0.142 natural log.
`K34E` gave a binding fitness of 0.023 natural log.
`N42K` has a binding fitness of -0.721 natural log.
`I28K` gave a binding fitness of -0.95 natural log.
The binding fitness of `K39C` is reported as -0.465 natural log.
The binding fitness of `E44S` is reported as -0.483 natural log.
`L31W` has a binding fitness of -1.14 natural log.
`R53W` has a binding fitness of -1.08 natural log.
